Measurements of several laboratories.
Lines come from different studies, so protocols differ.

For `CN[C@@H](C)C(=O)N[C@H]1CN(S(=O)(=O)c2cccc(S(=O)(=O)N3CC[C@H]4CC[C@@H](C(=O)NC(c5ccccc5)c5ccccc5)N4C(=O)[C@@H](NC(=O)[C@H](C)NC)C3)c2)CC[C@H]2CC[C@@H](C(=O)NC(c3ccccc3)c3ccccc3)N2C1=O`, “patients with treatment-related asthenia” read 0% (human, advanced solid tumours; 12 mg).
For `CNC(=O)c1cc(Oc2ccc(NC(=O)Nc3cc(C(C)(C)C)nn3-c3ccc4ncccc4c3)c(F)c2)ccn1`, “patients with related serious Nausea AE” read 3% (human, trial; oral, 150 mg twice daily, starting dose).
Under “patients with adverse event”, `CN(C)C(=O)c1cc2cnc(Nc3ccc(N4CCNCC4)cn3)nc2n1C1CCCC1` is recorded as 53.1% (refers to: Neutropenia, AESI; human, HR+/HER2− advanced breast cancer; oral, dose not given, grade 3, CTCAE v4.03).
`COc1ccc(-c2c(-c3ccc(C#N)c(F)c3)nc(N3CCC(N)CC3)n(C)c2=O)cc1F`: “patients with serious TEAE” 0% (refers to: pleural effusion; human patients; oral, 60 mg, dose expansion).
Under “patients with adverse event”, `C[C@@H]1OC(=O)NN=C1c1ccc(-c2ccc(F)cc2)c(C(F)(F)F)c1` is recorded as 20% (phase I trial, refers to: Pneumonitis all grades; human patients; dose not given, all dose groups).
Under “patients with TEAE”, `Cc1cn([C@H]2O[C@@H](CO[P@@](=O)(N[C@@H](C)C(=O)OC(C)C)Oc3ccccc3)[C@H](O)[C@H]2F)c(=O)[nH]c1=O` is recorded as 0% (refers to: common cold; human; 25 mg).
`COc1ncnn2ccc(-c3cnc4nc(C)n(Cc5nnc([C@@H](C)F)o5)c4c3)c12`: “patients with dehydration” 14.3% (human; oral, dose not given, grade 2).
`Cn1cncc1-c1c(F)cncc1NC(=O)c1c(N)nn2cc(F)cnc12` — result for “patients grade ≥3 Lymphocyte count decrease”: 14% (human patients; oral, 180 mg once daily, 2 weeks on 1 week off).
Under “patients with Hyperglycemia TEAE”, `C[C@]1(O)C[C@@](N)(c2ccc(-c3nc4n(c3-c3ccccc3)COc3ccncc3-4)cc2)C1` is recorded as 33.3% (human, advanced or metastatic solid tumours; 16 mg once daily, phase I dose escalation).
`O=C1Nc2cc3[nH]nc(-c4ccncc4)c3cc2CN1Cc1ccccc1` — result for “patients with retinal detachment”: 33% (CTCAE v4.03; human, relapsed or refractory advanced solid tumours; intravenous, 4.8 mg/kg).
`C=CC(=O)Nc1cc(Nc2nccc(Nc3cc(Cl)c(F)cc3C(C)(C)O)n2)c(OC)cc1N1CC[C@@H](N(C)C)C1` — result for “patients with mouth ulceration”: 12.5% (human patients; oral, 200 mg, treatment-emergent adverse events).

A few entries again:
`C=CC(=O)Nc1cc(Nc2nccc(Nc3cc(Cl)c(F)cc3C(C)(C)O)n2)c(OC)cc1N1CC[C@@H](N(C)C)C1` — result for “patients with mouth ulceration”: 12.5% (human patients; oral, 200 mg, treatment-emergent adverse events).
